{"data": "Experimental data of several laboratories", "note": "Parts stem from different laboratories: compare values within a part only."}
{"data": "Set 1", "target": "Ras GTPase-activating protein-binding protein 1, C-terminal RGG region (G3BP1, Homo sapiens, UniProt Q13283)", "technique": "RNA Bind-n-Seq", "molecule type": "RNA", "matrix": "in vitro", "tested at": "1 µM", "notes": "whole 134-nt RNA, ends assumed", "with": "150 mM KCl", "relative to": "input library", "direction": "higher = stronger binding", "chain of UniProt Q13283 (whole entry, looked up)": "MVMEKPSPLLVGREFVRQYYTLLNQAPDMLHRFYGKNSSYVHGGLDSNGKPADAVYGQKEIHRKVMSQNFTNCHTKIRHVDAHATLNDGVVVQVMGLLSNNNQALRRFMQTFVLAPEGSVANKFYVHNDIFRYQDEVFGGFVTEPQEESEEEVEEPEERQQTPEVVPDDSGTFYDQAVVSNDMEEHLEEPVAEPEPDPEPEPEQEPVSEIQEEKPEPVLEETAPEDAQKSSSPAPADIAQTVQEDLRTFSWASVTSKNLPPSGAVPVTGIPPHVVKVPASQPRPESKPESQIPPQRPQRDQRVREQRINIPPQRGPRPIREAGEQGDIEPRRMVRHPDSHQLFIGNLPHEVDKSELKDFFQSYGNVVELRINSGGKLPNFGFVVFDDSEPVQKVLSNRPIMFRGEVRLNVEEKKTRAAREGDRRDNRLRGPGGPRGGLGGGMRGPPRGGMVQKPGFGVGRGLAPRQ"}
{"Sequence": "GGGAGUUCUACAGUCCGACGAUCAGUCCUGUGCUACACAUCGUAUGUACCGAAUCGGAAAAAGGGAAAAAGGGAAAAAGGAAAGUAUUAUGUUACGCCGUUCGGAUCUGCACUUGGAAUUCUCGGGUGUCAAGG", "log2 enrichment": -1.76}
{"Sequence": "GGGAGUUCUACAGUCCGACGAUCCCUGUGCUACACAUCGUAUGUACCGAAUCGGCCCCCCCGGGCCCCCCCGGCCCCCCCGGGGAAAGUAUUAUGUUACGCCGUUCGGAUCUGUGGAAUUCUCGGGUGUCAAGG", "log2 enrichment": -1.57}
{"Sequence": "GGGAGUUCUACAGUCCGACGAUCUCCUCAAGUCCUGUGCUACACAUCGUAUGUACCGAAUCGGGCGGCGGCGGGAAAGUAUUAUGUUACGCCGUUCGGAUCUGCACUUCCAGCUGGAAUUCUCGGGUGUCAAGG", "log2 enrichment": -1.07}
{"Sequence": "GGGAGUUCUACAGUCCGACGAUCAGUCCUGUGCUACACAUCGUAUGUACCGAAUCAAACCCAAAUUUUUAAAUUUUUAAAAAAGUAUUAUGUUACGCCGUUCGGAUCUGCACUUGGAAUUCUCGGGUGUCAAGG", "log2 enrichment": -1.27}
{"Sequence": "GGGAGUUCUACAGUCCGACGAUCCCUCAAGUCCUGUGCUACACAUCGUAUGUACCGAAUCGGAAAGGAGGUUUGGAAAGUAUUAUGUUACGCCGUUCGGAUCUGCACUUCCAGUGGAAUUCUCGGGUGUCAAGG", "log2 enrichment": -0.972}
{"Sequence": "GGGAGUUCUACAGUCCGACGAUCAAGUCCUGUGCUACACAUCGUAUGUACCGAAUCGGCCCCGGCCCCGGGCCCCGGGGAAAGUAUUAUGUUACGCCGUUCGGAUCUGCACUUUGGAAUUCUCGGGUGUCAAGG", "log2 enrichment": -2.08}
{"Sequence": "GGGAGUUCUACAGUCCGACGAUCCUCAAGUCCUGUGCUACACAUCGUAUGUACCGAAUCGGAAAGGUGGAAAAAGGAAAGUAUUAUGUUACGCCGUUCGGAUCUGCACUUCCAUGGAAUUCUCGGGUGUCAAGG", "log2 enrichment": -1.35}
{"data": "Set 2", "target": "Sal-like protein 4, full length isoform B (SALL4, Homo sapiens, UniProt Q9UJQ4-2, residues 1-616)", "technique": "universal PBM", "molecule type": "double-stranded DNA, one strand shown", "matrix": "in vitro", "tested at": "not given", "notes": "8-mer, flanks averaged, mean of replicates", "direction": "higher = stronger binding"}
{"Sequence": "AATGTTAT", "E-score": 0.35}
{"Sequence": "CACCACGA", "E-score": 0.0252}
{"Sequence": "ATTAATTC", "E-score": 0.316}
{"Sequence": "AGGTCTGG", "E-score": -0.194}
{"Sequence": "AGAAGCGC", "E-score": -0.116}
{"Sequence": "AAAATGGA", "E-score": 0.213}
{"Sequence": "CCATTTTA", "E-score": 0.151}
{"Sequence": "ATACTAAG", "E-score": 0.183}
{"Sequence": "ACCGAGCG", "E-score": -0.198}
{"Sequence": "AGCGGTAT", "E-score": 0.0389}
{"data": "Set 3", "target": "RNA binding protein fox-1 homolog 2, RRM domain, GST-SBP tag (RBFOX2, Homo sapiens, UniProt O43251-10, residues 100-194)", "technique": "RNA Bind-n-Seq", "molecule type": "RNA", "matrix": "in vitro", "tested at": "365 nM", "notes": "natural RNA segment, single round, ends assumed", "relative to": "no-protein control", "direction": "higher = stronger binding", "Target sequence (chain)": "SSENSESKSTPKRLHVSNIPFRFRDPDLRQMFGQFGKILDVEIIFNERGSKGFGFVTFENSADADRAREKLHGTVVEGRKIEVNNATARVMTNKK"}
{"Sequence": "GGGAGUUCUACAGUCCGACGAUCUCCUCCAGUUUUUAAUUUACUUUCGGAGUUUGUGUUGAUUUUGAUGGCACGUGACUUUUAAGCAGUAGGAUUUUGCCAAGCAGAAUUUUUGAAGGCAUGAGGCCAGUGACUGGAAUUCUCGGGUGCCAA", "RBNS enrichment (R)": 0.618}
{"Sequence": "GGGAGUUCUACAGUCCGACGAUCAUAAAAAAAAAUGGGAGAUUGUUUUCAGGAAUUCAGGGAUGAAAAGAAAGAAUAAUUUCCAUUAAGUAGAAUUCCAGUUGUCUUUCUGUUUCUAAAACACAGAACUUACAUGGAAUUCUCGGGUGCCAA", "RBNS enrichment (R)": 0.636}
{"Sequence": "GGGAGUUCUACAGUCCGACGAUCGGACUCCGAUGAAGACGACGCCGAUUACUAAGAGGACGCACUUAGACAGACUUCCGGAGCAGUGUCUAGGACAGUCACCACCUUGUAAAUGUUUACUUUGUUCCCUGUCUUGGAAUUCUCGGGUGCCAA", "RBNS enrichment (R)": 0.247}
{"Sequence": "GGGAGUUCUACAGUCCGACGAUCAAUUAUGUUGAAGGUAGAAGUGAUCUUCAAAGAGAUGGCCAUUAACUUAGCAGUGGGACCUCACUUUUACAAGCACUGCUCUAGAUAUACUUGAAGAAUUUAAUAGGUACUGGAAUUCUCGGGUGCCAA", "RBNS enrichment (R)": 0.427}
{"Sequence": "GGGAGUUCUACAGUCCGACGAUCCAGAGAGGGGGGUUCAAAGACCCCCGGAGGGGGCCUACUCUGUGUUGGUGGGAAUGGAACUGGGCCGAUGUCCUUCAUUCAGCCUGUGCCUUUCUUGGGGUUUCUUUUCUUGGAAUUCUCGGGUGCCAA", "RBNS enrichment (R)": 0.581}
{"Sequence": "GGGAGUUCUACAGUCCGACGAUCCCUCACAGACAUUCCCGUCCUUUCUGGUUGGUGUUGACUGUGUUUCAGCAUCACUCUACCCUCCCAUGUCCUUAGCAUUGCUGUGCGUGUUUCCAGGCACUUAGGACACCUGGAAUUCUCGGGUGCCAA", "RBNS enrichment (R)": 0.762}
{"data": "Single results of other studies"}
{"Molecule": "PhoQ, residues 284 288 289 292 302 303 SQSLSM", "target": "PhoP, residues 12 14 15 18 19 LWHVM (Escherichia coli, UniProt P23836)", "assay": "Sort-seq, measured: YFP reporter", "test system": "E. coli", "setting": "PhoQ-PhoP variant library, with: 10 µM Mg2+", "how to read": "relative to: high Mg2+ state, higher = stronger signaling", "endpoint": "fold induction", "result": 8.48}
{"note": "For quick reference, copied from above (set 3):"}
{"Sequence": "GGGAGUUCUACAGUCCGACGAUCGGACUCCGAUGAAGACGACGCCGAUUACUAAGAGGACGCACUUAGACAGACUUCCGGAGCAGUGUCUAGGACAGUCACCACCUUGUAAAUGUUUACUUUGUUCCCUGUCUUGGAAUUCUCGGGUGCCAA", "RBNS enrichment (R)": 0.247}
{"Sequence": "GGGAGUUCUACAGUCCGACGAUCAAUUAUGUUGAAGGUAGAAGUGAUCUUCAAAGAGAUGGCCAUUAACUUAGCAGUGGGACCUCACUUUUACAAGCACUGCUCUAGAUAUACUUGAAGAAUUUAAUAGGUACUGGAAUUCUCGGGUGCCAA", "RBNS enrichment (R)": 0.427}
{"Sequence": "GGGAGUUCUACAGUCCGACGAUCCAGAGAGGGGGGUUCAAAGACCCCCGGAGGGGGCCUACUCUGUGUUGGUGGGAAUGGAACUGGGCCGAUGUCCUUCAUUCAGCCUGUGCCUUUCUUGGGGUUUCUUUUCUUGGAAUUCUCGGGUGCCAA", "RBNS enrichment (R)": 0.581}
